Values quoted from earlier work, collected from citations in different studies.
Compare with care: the assays were run in different laboratories. Numbers after ± are the reported error.
Chain of UniProt P21741 (whole entry, looked up): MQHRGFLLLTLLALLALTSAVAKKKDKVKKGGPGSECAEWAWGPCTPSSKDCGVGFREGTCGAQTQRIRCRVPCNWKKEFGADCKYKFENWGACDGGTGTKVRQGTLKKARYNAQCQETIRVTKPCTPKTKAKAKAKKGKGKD
Chain of UniProt P28907 (whole entry, looked up): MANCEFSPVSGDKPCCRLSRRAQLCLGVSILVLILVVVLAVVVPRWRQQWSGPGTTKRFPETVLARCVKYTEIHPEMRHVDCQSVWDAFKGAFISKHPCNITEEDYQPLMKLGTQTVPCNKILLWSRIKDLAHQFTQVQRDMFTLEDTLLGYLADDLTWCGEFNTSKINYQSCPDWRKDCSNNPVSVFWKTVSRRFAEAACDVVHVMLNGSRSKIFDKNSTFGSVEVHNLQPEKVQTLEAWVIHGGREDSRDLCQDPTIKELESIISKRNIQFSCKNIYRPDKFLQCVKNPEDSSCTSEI
Chain of UniProt Q13255 (whole entry, looked up): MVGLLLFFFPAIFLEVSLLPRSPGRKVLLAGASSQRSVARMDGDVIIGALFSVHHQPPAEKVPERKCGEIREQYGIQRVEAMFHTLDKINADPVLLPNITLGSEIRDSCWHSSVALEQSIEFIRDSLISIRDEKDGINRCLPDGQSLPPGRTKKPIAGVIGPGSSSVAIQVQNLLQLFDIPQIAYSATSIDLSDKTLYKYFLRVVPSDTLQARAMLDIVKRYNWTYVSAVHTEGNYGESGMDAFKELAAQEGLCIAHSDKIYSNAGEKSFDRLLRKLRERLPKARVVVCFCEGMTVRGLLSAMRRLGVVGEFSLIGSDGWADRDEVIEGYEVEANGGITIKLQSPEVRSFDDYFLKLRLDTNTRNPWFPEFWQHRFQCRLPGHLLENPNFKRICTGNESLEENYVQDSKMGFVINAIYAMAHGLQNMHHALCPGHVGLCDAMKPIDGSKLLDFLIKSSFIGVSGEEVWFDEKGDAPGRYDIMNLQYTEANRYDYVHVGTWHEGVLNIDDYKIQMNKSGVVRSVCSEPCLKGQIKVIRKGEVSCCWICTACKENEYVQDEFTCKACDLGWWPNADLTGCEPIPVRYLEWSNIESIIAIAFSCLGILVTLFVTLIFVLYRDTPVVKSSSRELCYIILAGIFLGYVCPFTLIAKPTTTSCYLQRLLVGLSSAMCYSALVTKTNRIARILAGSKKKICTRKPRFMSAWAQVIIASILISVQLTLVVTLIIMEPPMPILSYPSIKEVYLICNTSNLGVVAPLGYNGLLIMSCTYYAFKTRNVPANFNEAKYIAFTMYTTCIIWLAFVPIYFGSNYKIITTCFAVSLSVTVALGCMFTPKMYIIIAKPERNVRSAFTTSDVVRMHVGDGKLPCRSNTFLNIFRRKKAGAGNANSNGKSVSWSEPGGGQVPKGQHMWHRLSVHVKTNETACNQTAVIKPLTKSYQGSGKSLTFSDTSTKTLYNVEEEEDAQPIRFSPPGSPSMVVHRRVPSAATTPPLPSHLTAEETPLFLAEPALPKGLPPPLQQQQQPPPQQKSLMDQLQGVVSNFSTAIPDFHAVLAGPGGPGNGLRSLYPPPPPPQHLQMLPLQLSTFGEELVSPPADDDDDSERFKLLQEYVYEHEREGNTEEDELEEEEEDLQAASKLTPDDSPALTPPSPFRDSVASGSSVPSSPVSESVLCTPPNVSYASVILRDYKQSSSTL
Chain of UniProt P23739 (whole entry, looked up): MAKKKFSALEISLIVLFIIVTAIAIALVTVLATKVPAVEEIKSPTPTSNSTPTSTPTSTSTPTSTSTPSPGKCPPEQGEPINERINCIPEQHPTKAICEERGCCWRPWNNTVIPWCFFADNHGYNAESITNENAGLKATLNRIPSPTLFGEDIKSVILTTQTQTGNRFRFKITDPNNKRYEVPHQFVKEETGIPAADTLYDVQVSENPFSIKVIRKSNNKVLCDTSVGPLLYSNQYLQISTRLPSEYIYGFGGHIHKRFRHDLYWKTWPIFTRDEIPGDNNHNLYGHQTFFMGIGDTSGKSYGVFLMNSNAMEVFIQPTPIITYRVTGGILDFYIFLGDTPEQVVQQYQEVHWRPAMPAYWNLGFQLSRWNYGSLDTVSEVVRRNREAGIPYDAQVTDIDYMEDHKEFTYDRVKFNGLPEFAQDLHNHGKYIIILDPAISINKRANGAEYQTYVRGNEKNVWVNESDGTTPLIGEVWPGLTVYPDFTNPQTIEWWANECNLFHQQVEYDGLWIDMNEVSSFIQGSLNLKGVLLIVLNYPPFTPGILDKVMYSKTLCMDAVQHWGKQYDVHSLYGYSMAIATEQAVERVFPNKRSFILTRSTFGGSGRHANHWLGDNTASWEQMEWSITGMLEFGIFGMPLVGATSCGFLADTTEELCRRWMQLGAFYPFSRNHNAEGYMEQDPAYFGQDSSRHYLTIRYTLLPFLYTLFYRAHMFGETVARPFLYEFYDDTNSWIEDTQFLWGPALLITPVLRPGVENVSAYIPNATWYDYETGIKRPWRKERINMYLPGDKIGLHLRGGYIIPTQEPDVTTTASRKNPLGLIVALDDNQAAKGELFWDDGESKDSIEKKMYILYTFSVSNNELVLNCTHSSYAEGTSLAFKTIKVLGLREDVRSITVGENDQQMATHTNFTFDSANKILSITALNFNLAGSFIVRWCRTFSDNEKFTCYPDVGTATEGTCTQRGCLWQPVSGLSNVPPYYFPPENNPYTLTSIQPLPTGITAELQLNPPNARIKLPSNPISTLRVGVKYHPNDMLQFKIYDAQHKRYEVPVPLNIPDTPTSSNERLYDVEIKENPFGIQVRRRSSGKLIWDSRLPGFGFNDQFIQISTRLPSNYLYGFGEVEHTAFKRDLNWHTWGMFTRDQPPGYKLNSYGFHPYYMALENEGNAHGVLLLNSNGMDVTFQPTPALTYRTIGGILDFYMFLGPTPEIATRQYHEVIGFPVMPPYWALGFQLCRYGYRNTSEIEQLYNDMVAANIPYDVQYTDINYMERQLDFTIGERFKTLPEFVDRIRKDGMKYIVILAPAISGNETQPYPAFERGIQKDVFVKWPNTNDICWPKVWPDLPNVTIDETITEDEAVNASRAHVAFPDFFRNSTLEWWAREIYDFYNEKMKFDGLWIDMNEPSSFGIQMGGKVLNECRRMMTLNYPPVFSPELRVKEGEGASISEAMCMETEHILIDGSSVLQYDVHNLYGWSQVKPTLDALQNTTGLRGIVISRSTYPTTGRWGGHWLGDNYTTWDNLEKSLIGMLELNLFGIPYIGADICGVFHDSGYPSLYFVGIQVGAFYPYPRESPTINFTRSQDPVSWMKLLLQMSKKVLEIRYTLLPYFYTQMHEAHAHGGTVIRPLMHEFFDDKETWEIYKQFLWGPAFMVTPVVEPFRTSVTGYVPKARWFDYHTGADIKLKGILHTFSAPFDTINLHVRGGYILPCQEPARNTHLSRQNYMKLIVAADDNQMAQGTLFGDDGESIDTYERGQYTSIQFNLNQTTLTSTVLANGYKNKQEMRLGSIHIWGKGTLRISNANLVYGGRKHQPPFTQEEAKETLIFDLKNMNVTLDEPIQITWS
Chain of UniProt Q8N6T7 (whole entry, looked up): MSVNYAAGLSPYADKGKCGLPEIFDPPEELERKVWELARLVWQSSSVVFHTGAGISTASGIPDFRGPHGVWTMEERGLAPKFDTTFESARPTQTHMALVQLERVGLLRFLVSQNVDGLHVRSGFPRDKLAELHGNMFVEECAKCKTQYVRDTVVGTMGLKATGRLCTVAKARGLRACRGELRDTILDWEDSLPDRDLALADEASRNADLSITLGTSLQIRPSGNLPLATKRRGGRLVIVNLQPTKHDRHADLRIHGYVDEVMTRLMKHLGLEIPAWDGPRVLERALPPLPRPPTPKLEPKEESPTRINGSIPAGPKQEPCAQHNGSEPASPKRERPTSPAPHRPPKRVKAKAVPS
Chain of UniProt P37353 (whole entry, looked up): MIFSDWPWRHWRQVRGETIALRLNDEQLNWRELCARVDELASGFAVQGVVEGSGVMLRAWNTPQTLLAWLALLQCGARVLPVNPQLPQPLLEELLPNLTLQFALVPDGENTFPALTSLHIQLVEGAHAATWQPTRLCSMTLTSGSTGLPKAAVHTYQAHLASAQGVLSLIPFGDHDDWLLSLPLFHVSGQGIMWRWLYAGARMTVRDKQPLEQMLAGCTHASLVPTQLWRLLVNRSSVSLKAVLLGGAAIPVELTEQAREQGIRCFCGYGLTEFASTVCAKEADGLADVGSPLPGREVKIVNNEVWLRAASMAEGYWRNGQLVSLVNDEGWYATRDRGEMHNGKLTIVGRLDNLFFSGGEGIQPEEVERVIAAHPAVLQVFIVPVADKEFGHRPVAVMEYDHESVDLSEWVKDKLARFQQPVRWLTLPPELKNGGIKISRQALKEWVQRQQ
Chain of UniProt Q9NXA8 (whole entry, looked up): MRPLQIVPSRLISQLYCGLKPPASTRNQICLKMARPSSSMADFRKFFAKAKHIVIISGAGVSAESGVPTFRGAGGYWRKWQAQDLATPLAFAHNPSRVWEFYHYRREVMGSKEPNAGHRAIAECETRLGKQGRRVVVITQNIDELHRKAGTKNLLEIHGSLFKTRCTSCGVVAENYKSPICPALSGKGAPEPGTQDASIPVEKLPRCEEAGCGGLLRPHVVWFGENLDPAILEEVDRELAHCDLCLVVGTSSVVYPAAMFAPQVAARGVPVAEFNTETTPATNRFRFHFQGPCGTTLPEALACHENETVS
Chain of UniProt Q9NZQ7 (whole entry, looked up): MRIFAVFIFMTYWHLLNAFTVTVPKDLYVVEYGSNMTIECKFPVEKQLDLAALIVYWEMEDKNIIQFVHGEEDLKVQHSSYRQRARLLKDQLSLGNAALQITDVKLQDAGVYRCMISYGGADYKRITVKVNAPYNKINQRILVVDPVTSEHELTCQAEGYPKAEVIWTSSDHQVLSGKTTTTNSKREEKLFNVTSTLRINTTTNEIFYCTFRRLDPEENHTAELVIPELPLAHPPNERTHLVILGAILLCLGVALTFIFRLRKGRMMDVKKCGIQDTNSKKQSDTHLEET

Nc1c(-c2ccc(Cl)cc2)nc2nc3ccccc3n2c1-c1ccc(Cl)cc1
IC50 (rat intestinal alpha-glucosidase; inhibitor): 45 µM

Cc1ccccc1CO[C@@H](CO)[C@H](O)C[S@@+]1C[C@@H](O)[C@H](O)[C@H]1CO
IC50 (rat intestinal maltase; maltase activity, inhibitor; rat intestinal disaccharidases): 0.66 µM

COc1ccc(O[C@@H]2O[C@H](C(=O)OCc3ccccc3)[C@@H](O[C@@H]3O[C@H](COS(=O)(=O)O)[C@H](OS(=O)(=O)O)[C@H](O[C@@H]4O[C@H](C(=O)OCc5ccccc5)[C@@H](O[C@@H]5O[C@H](COS(=O)(=O)O)[C@H](OS(=O)(=O)O)[C@H](OC(=O)CCC(C)=O)[C@H]5NC(=O)C(F)(F)F)[C@H](OCc5ccccc5)[C@H]4OC(=O)c4ccccc4)[C@H]3NC(=O)C(F)(F)F)[C@H](OCc3ccccc3)[C@H]2OC(=O)c2ccccc2)cc1
IC50 (Midkine (Homo sapiens, UniProt P21741); binding to tetrasaccharides, inhibitor): 1.3 µM

Nc1ncnc2c1ncn2[C@@H]1O[C@H](COS(=O)(=O)NC(=O)CCC(=O)c2ccccc2C(=O)O)[C@@H](O)[C@H]1O
IC50 (2-succinylbenzoate--CoA ligase (menE, Escherichia coli, UniProt P37353)): 0.024 ± 0.003 µM

O=C(O)CNC(=O)c1ccc(NC(=O)c2cc(Br)c(Br)[nH]2)cc1
IC50 (DNA gyrase subunit B (gyrB, Escherichia coli, UniProt P0AES6); enzyme activity, inhibitor): 0.45 µM

Cc1ccc(Nc2nnc(Cc3ccncc3)c3ccccc23)cc1Br
IC50 (Vascular endothelial growth factor receptor 2 (KDR, Homo sapiens, UniProt P35968)): 0.02 µM

O=[N+]([O-])c1ccccc1CO[C@@H](CO)[C@H](O)C[S@@+]1C[C@@H](O)[C@H](O)[C@H]1CO
IC50 (Sucrase-isomaltase, intestinal (Si, Rattus norvegicus, UniProt P23739); isomaltase activity, inhibitor; rat intestinal disaccharidases): 0.21 µM

C#CCOc1ccc(C(=O)c2ccc(C(=O)N[C@@H](CCCCNC(=S)CCCCCCCCCCCCC)C(=O)N[C@@H](C)C(=O)N[C@@H](C)C(=O)OC)cc2)cc1
IC50 (NAD-dependent protein deacylase sirtuin-5, mitochondrial (SIRT5, Homo sapiens, UniProt Q9NXA8); enzyme activity, inhibitor): > 5000 µM

COc1ccc(C(=O)/C=C(\O)C(F)(F)C(F)(F)F)cn1
IC50 (Formate-nitrite transporter (Plasmodium falciparum, UniProt O77389); L-lactate transport; yeast expressing wild type): 0.11 ± 0.01 µM

COc1ccc(C2CC3(CN(CC(=O)O)C(=O)O3)c3ccccc3O2)cc1 (centres unmarked)
IC50 (Aldo-keto reductase family 1 member B1 (Akr1b1, Rattus norvegicus, UniProt P07943); enzyme activity, inhibitor): 2.25 µM

Cc1c(COc2cc(OCc3cncc(C#N)c3)c(CN(CCCN(C)C)CCS(=O)(=O)O)cc2Cl)cccc1-c1ccc2c(c1)OCCO2
IC50 (Programmed cell death 1 ligand 1 (CD274, Homo sapiens, UniProt Q9NZQ7)): 0.001 µM

C#CCCCC1(CCC(=O)N[C@@H](CCCCNC(=S)CCC(=O)O)C(=O)N[C@@H](C)C(=O)N[C@@H](C)C(=O)OC)N=N1
IC50 (NAD-dependent protein deacylase sirtuin-6 (SIRT6, Homo sapiens, UniProt Q8N6T7); deacetylase activity, inhibitor, HPLC; with: H3K9ac substrate): > 5000 µM

COCCO[C@H]1CC[C@H](Nc2cc(=O)n(C)c3ccc(-c4cncs4)cc23)CC1
IC50 (ADP-ribosyl cyclase/cyclic ADP-ribose hydrolase 1 (CD38, Homo sapiens, UniProt P28907)): 0.007 µM

O=C(Nc1ccccn1)[C@]12C[C@H]1/C(=N\O)c1ccccc1O2
IC50 (Metabotropic glutamate receptor 1 (GRM1, Homo sapiens, UniProt Q13255); negative allosteric modulator): > 30 µM

Clc1ccccc1C1Nc2ccc3ccccc3c2C2C=CCC21 (centres unmarked)
IC50 (androgen receptor ligand-binding domain; binding): 4 µM

NS(=O)(=O)c1ccc(N2N=C(C(F)(F)F)CC2c2ccc(F)cc2F)cc1 (centres unmarked)
IC50 (COX-2 (sheep placenta); enzyme activity, inhibitor): 2.93 µM

O=c1c2c(O)cc(O)cc2oc2oc3cc(O)ccc3c12
IC50 (alpha-glucosidase; inhibitor): 10.7 ± 2.01 µM

Some of these lines once more:
O=C(Nc1ccccn1)[C@]12C[C@H]1/C(=N\O)c1ccccc1O2
IC50 (Metabotropic glutamate receptor 1 (GRM1, Homo sapiens, UniProt Q13255); negative allosteric modulator): > 30 µM

O=[N+]([O-])c1ccccc1CO[C@@H](CO)[C@H](O)C[S@@+]1C[C@@H](O)[C@H](O)[C@H]1CO
IC50 (Sucrase-isomaltase, intestinal (Si, Rattus norvegicus, UniProt P23739); isomaltase activity, inhibitor; rat intestinal disaccharidases): 0.21 µM
